Results gathered from unrelated publications.
A part holds a random share of what one study measured.

Block 1
Target: Prothrombin, mature alpha-thrombin (F2, Homo sapiens, UniProt P00734)
Technique: aptamer microarray, sandwich
Molecule type: DNA with 2'F-ANA
Sample: in vitro
Tested at: 200 nM
Notes: whole 15-mer aptamer, many near background
With: Cy3 exosite-II aptamer, 400 nM
Reading: higher = stronger binding
Endpoint: mean fluorescence intensity
Strand: GGTTGGTGTGGTTGG
2'F-ANA at 1 2 3 8 9 12 15: 546 a.u.
2'F-ANA at 2 3 4 9 11 13 14 15: 242 a.u.
2'F-ANA at 3 5 7 8 9 11 13 14 15: 58 a.u.
2'F-ANA at 1 3 6 8 9 12 13 15: 505 a.u.
2'F-ANA at 1 7 9 11 14: 56.2 a.u.
2'F-ANA at 1 2 3 5 7 13 14 15: 96.8 a.u.
2'F-ANA at 1 2 3 7 8 9 11 12 13 14 15: 88.7 a.u.
2'F-ANA at 7 10 11 12 13 14: 110 a.u.

Block 2
Target: Centromere-binding protein 1, full length, N-terminal tag (CBF1, Saccharomyces cerevisiae, UniProt P17106, residues 1-351)
Sequence of UniProt P17106 (whole entry, looked up): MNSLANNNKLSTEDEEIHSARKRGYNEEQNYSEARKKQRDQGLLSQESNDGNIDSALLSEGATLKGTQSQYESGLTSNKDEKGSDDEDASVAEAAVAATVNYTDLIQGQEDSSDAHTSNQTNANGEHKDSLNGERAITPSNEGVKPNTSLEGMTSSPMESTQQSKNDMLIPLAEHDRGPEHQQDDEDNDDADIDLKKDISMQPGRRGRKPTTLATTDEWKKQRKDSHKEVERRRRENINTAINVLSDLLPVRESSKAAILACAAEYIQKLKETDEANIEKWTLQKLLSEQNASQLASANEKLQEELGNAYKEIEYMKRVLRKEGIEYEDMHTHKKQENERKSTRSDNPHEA
Technique: protein-binding microarray
Molecule type: double-stranded DNA, one strand shown
Sample: in vitro
Tested at: 0.8 µM
Notes: whole 60-bp probe, no competitor
Reading: higher = stronger binding
Endpoint: fluorescence intensity
Shared flanks, not repeated: … GTCTTGATTCGCTTGACGCTGCTG
CTAGTAACTGCCGGTGGTGGTTTTCCTATTAGGTTC: 499 a.u.
CTAATTGTCATTTAACACGGGGATGAGCTTCTTTTC: 604 a.u.
GAAAAGACTAGCAACCACGTTTTGTTTTGTAGTTAG: 570 a.u.
CTATAACGTTTTCATCACCACATGTTTTTTTTTTTC: 966 a.u.
GAAGACCATTCATTACTCGTGCGGAACCAGTAATAG: 541 a.u.
CTATCTAGAAAAATTCACATGCTGATTCATTTATTC: 650 a.u.
GAAGAGAACTTTAGCGTCACCAGTTACTGCGACTAG: 501 a.u.
GAAAGAAGCAATGGTGGTGTCTGTTCATTGCGATAG: 522 a.u.

Block 3
Target: TAR DNA-binding protein 43, full length, His tag (TARDBP, Homo sapiens, UniProt Q13148, residues 1-414)
Technique: RNA Bind-n-Seq
Molecule type: RNA
Sample: in vitro
Tested at: 20 nM
Notes: 6-mer, flanks averaged, single round
With: 150 mM LiCl
Reference: input library
Reading: higher = stronger binding
Endpoint: 6-mer enrichment (R)
GCCUCA: 0.918
CAAAAA: 0.837
ACCUGC: 0.891
UCAGAU: 0.8
ACGGUC: 0.825
ACAGAG: 0.872
GGCACC: 1.07
UAGGGA: 1.04

Single results of other studies
MKYVWPPIM  binding (HLA class I histocompatibility antigen, A alpha chain, allele A*80:01 (Homo sapiens, UniProt P04439); peptide-MHC binding; peptide; concentration not given): inactive
